# Assay results collected from several papers.
# Parts stem from different laboratories: compare values within a part only.

# Block 1 — method: protein-binding microarray; form: double-stranded DNA, one strand shown; sample: in vitro; tested at: 2200 nM top; setting: 60-bp whole probe; added: salmon DNA 0.4 mg/ml; relative to: random background probes; reading: higher = stronger binding; all sequences stand within: GCCTAGCAC … GTCTTGATTCGCTTGACGCTGCTG
# Target: Interferon regulatory factor 7, full length, phosphomimetic (IRF7, Homo sapiens, UniProt Q92985, residues 1-503, S471D/S472D/S475D/S476D/S477D/S483D/S484D/S487D)
# Sequence of UniProt Q92985 (whole entry, unmodified, looked up): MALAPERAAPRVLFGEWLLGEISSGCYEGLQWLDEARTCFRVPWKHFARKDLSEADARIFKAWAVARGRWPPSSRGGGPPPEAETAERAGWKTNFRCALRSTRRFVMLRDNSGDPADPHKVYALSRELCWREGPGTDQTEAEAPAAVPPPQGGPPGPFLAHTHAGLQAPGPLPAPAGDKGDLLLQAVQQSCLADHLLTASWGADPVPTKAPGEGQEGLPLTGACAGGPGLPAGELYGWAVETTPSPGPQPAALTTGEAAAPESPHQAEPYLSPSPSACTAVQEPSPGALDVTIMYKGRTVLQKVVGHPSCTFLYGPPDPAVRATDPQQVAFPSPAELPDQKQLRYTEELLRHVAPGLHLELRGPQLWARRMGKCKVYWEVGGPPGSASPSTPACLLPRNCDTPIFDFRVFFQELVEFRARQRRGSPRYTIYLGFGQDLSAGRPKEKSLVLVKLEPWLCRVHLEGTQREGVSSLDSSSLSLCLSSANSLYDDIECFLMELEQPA
Sequence,fitted relative affinity
TCACTTTTCTTTTCTTTACTGTGCTAG,7.9 z-score
TTAGGTTTCGGGACTGGGTCAGTGCTA,3.31 z-score
TAGTTTTACTTTCTATGTCTGTGCTAG,4.69 z-score
GACGATTTTGGGTTTCGAGACGTGCTA,2.79 z-score
TTAGGTATCGACTATCGGTTTGTGCTA,1.39 z-score
TTAGATCTCACTTTCGATTAGTGCTAG,7.61 z-score
TAACTTTTTTTTTTCCCTGAGTGCTAG,1.58 z-score
CTCTATACCCATGTAGAGAGGTGCTAG,0.41 z-score
TTAGATTTCGGGTTGCGATTAGTGCTA,6.1 z-score
TTAGATTTCACTTCCGATTAGTGCTAG,2.98 z-score
TTAGGTATCGACTATCCGTTAGTGCTA,0.546 z-score
TTATATATCAGTTTCGATTAGTGCTAG,6.46 z-score
GACGATTTCGGTCTCGAGACGTGCTAG,3.1 z-score
TTAGATATCAGCCTGGATTAGTGCTAG,-0.216 z-score
TCATGCTTTCATTTATTACTGTGCTAG,2.25 z-score
TTTGATCTCAGTATCGATTAGTGCTAG,0.714 z-score
TTAGGTTTCGGTTACGGTTAGTGCTAG,7.16 z-score
GACGGACAGGACACTGGGGACGTGCTA,-1.16 z-score
GACGGACTGCTTTTCTTGACGTGCTAG,0.462 z-score
GACGGAATCCTTTTCCTGACGTGCTAG,0.912 z-score

# Block 2 — method: RNAcompete; form: RNA; sample: in vitro; tested at: 20 nM; setting: 7-mer, probes averaged, single round; relative to: mean of 7-mers; reading: higher = stronger binding
# Target: PABPC1L2, full length, GST fusion (mouse, UniProt A0ABA7IW68)
# Construct (chain): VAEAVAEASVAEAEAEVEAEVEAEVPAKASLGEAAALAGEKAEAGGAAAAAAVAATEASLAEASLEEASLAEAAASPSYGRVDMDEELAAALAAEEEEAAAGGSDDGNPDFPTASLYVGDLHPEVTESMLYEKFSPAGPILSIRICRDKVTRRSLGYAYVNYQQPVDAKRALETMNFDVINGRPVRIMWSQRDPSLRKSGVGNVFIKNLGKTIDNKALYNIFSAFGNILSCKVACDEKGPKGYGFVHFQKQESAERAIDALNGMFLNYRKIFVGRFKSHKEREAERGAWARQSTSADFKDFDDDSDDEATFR
Sequence,7-mer Z-score
CACACCU,-0.246
GUCCUAA,-0.122
ACUACAA,0.309
GAUACUG,-0.17
CCCGCGG,-0.423
UGUAGCU,-0.184
AACGUGG,0.407
UUCGGUA,-0.235
AUGCAUA,-0.0989
GCGUUAA,-0.148
GACGUUC,-0.298
UUUUGGC,-0.215
UGGCGUG,-0.204
AUGUUUA,-0.266
CCCGUUG,-0.507
UUAAAGA,0.941
GAUCGAG,-0.128
GCAACUA,0.119
UACUUCA,-0.215
ACAUGGA,0.236
GAUCCAC,-0.193
UAACAAC,-0.0264
AGUCCGU,-0.304
CGCCGUC,-0.479
CGUUACC,-0.286

# Block 3 — method: competition protein-binding microarray; form: double-stranded DNA, one strand shown; sample: in vitro; tested at: 2 µM; added: Pho4 competitor, 0.05 µM; reading: higher = stronger binding; all sequences stand within: … GTCTTGATTCGCTTGACGCTGCTG
# Target: Centromere-binding protein 1, full length, His-tagged (CBF1, Saccharomyces cerevisiae, UniProt P17106, residues 1-351)
# Sequence of UniProt P17106 (whole entry, looked up): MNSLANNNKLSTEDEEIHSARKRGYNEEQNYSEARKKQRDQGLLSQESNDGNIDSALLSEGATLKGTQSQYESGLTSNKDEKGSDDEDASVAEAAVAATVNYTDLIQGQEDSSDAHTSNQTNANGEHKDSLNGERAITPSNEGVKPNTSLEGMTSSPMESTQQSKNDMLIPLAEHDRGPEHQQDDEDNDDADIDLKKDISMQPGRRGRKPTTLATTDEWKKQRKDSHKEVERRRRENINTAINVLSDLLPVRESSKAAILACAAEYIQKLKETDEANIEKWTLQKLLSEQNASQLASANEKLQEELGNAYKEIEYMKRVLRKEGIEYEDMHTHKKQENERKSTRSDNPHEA
# Setting: whole 60-bp probe, lowest competitor level
Sequence,fluorescence intensity [a.u.]
CATACCCAACCTTGCTCTGTGGGTGAAGATATTTGT,80.2
GTAACTTTACCGTCCCACGTGTCCAAAGGTACGCTG,1330
ACCCAGGGGCGCCCCCACGTGGGGTCTGGGAGCGCG,369
TCTTGGAATTGCGACCACGTGCAAACCTACGTCTGC,3280
CGTCCTAGTGATTGGGGTGTGGGTGCCATGAGGAAG,80.7
GTCTTGTCTCATTGTGCTGTGGGTGTCCCCACTTCA,73
AAGGCCTGGTCAACCATCGTGTAGGCGTCAAGCTTA,51.6
AAAGCGGTAATTTTTCACGTGCTATCAAATATCTAT,2660
CGTCCTAGTGATTGTCACGTGTTTTCCATGAGGAAG,6550
CATACCCAACCTTTTCACGTGATTTAAGATATTTGT,3850
ACTCCCGGTTATCTAGACGTGTTGATCTTGGACACT,76.7
TGCGCAACAACTTGTATTGTGGGTGTATGTCTAGAA,60.2
GTCTTGTCTCATTGAACGGTGGGTGTCCCCACTTCA,61
AAATCTTTCCTCAACCGCGTGTTTTCGTCTTTACCA,81.4
CGTCCTAGTGATTGGTTTGTGGGTGCCATGAGGAAG,84.1
TGCGCGTTTTTCTGGGACGTGCTAACAAACGAGAAA,81.5
AGGCACAACTTTCCGCACGTAGTGTTTTCAGCCCCA,73.1
CTTCTGTAAATTTGATCCGTGGGTGGACGCGCCCCG,80.7
CGGGGTTAAGTTTGTCACCACACTTGCTTGCAGCAG,82
GTCTTGTCTCATTGCGTGGTGGGTGTCCCCACTTCA,84.8
GCGGAACGGCCCGCAATCGTGACTCGGCCAAAGGCG,71.4
GGATTTGATTACCATCACGTGATGGAATGCTTTTGT,13000

# Block 4 — method: protein binding microarray; form: double-stranded DNA, one strand shown; sample: in vitro; tested at: not given; relative to: not given; reading: higher = stronger binding
# Target: Histone acetyltransferase KAT6A, winged helix 1, GST fusion (KAT6A, Homo sapiens, UniProt Q92794, residues 1-85)
# Setting: 8-mer, flanks averaged, mean of 2 arrays, mostly near background
# Target sequence (chain): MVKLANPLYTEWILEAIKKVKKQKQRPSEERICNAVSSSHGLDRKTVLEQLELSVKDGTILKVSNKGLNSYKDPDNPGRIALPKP
Sequence,E-score
TATGGCAA,0.0255
AGACGCCT,0.0289
AAACCACC,-0.0464
AGGATCAA,-0.118
CCCGAAGC,0.0156
ACGATTGA,-0.123
CCTTTAAC,0.0349
ATATGTGC,0.129
GAACAATA,0.0404
CAGTAGCA,-0.0515
AACCTACC,-0.152
AACCCGGA,0.166
TCCTACAA,-0.208
CAAGATTA,-0.218
CTCTCCCC,-0.0876
TAGGACTA,-0.0698
GGAGGAAC,0.00136
GCCTTCTA,-0.176

# Repeated from above (block 1):
Sequence,fitted relative affinity
TTAGATATCAGCCTGGATTAGTGCTAG,-0.216 z-score
TCATGCTTTCATTTATTACTGTGCTAG,2.25 z-score
TTTGATCTCAGTATCGATTAGTGCTAG,0.714 z-score
TTAGGTTTCGGTTACGGTTAGTGCTAG,7.16 z-score
GACGGACAGGACACTGGGGACGTGCTA,-1.16 z-score
GACGGACTGCTTTTCTTGACGTGCTAG,0.462 z-score
GACGGAATCCTTTTCCTGACGTGCTAG,0.912 z-score
